Results from different studies.
Numbered parts are unrelated; each lists some results of a single study.

Series 1 — technique: protein binding microarray; molecule type: double-stranded DNA, one strand shown; matrix: in vitro; concentration: not given; baseline: not given; direction: higher = stronger binding
Target: Histone acetyltransferase KAT6A, both winged helices, GST fusion (KAT6A, Homo sapiens, UniProt Q92794, residues 1-181)
Setting: 8-mer, flanks averaged, mean of 2 arrays, mostly near background
Residues (chain): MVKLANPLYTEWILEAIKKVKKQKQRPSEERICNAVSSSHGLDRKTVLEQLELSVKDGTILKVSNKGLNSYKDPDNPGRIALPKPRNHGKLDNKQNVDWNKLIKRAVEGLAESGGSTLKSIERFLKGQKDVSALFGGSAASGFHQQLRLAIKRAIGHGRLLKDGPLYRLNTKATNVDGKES
Sequence | E-score
AGTGCATC | -0.13
CCTTCAAA | -0.0687
GAGACAAC | -0.141
AAGGTCCT | -0.202
CTCATGCA | -0.187
CTAGGCTC | -0.192
GCCAATGA | -0.163
CAAACGTG | -0.116
CGGCCAAG | 0.139
AGGGTTAC | 0.067
AACTTTTA | -0.0097
ATCGGGCG | 0.248
ACAGCACT | -0.144
CCACTTTC | -0.105
CTTAAAAC | -0.103
GACCCTTA | 0.0173
CCGGAGGC | 0.00485
ATGCAGCG | 0.124
AGGGTAAA | -0.203
GTTCTGAA | -0.0119
GTGGACGA | -0.101
ATATAGAA | 0.02
ACGGTTTA | 0.139
GATACCCA | -0.107
CCTTGGAA | -0.15

Series 2 — technique: RNA Bind-n-Seq; molecule type: RNA; matrix: in vitro; concentration: 365 nM; baseline: no-protein control; direction: higher = stronger binding
Target: RNA binding protein fox-1 homolog 2, RRM domain, GST-SBP tag (RBFOX2, Homo sapiens, UniProt O43251-10, residues 100-194)
Setting: natural RNA segment, single round, ends assumed
Constant ends, left off below: GGGAGUUCUACAGUCCGACGAUC … UGGAAUUCUCGGGUGCCAA
Target sequence (chain): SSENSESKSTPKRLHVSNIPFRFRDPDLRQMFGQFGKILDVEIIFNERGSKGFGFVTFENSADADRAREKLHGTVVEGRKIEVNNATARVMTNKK
Sequence | RBNS enrichment (R)
GCCUUGCAGUAGGCAGUAGACUAUAAGCAGAAGCACAUAUGAACUGGACCUGCACCAAAGCUGGCACCAGGGCUCGGAAGGUCUCUGAACUCAGAAGGAUGGCAUUUUUU | 2.92
GAAGAUAAUGAAAGCAAAUAUGUAACAAUACAAGUAGGGACUUUAGAGCUUCUAUUUGGGUUAAAACAUCCACUCACUUGGUUAGGAGCUAUGCCUCAGAAACUUCCUGG | 0.425
GUGCUGGCAAGGGAUUGGGUUUGUGUGGGUGUCUCUAGCCUGCAGAGUGCAGUGAGUGAGAGUCCUUGGGAGCGCGGCGCUGCCUGUAGCUGUGCCUGGGGAUGCACGUG | 12.8
AUUGGCCUGGCACAUGCUUUAUGUUAGGCCUCCCGUUGGGAUGGCUGAGAAUCAUGAAAGACAGAUCCUCCGCUAGCCUCUGUGGGUCAAGUUUCUGGACACCAAGUCUC | 0.225
UGGAUUUAAACUGCUUAAAAAAGAAAAUGUGACCGGCUCUCCUGCUUGGGUCUCAGGGGAGAUAUGCUUAAGGCCAGAGCUCUUCCUCAGUAUUUGAUUUUUCCAGUGUU | 4.21
UGGUUUCUCCAUGUUUACACUUCAAUCUGCAGGCUUCUUAAAGUGACAGUAUCCCUUAACCUGCCACCGGUUUCCACCUUUCAACCCCCUGGUCUUAUAAGGGGAGGAGA | 0.463
AUAUUUGAUAGACUGCUUUCAGAAAACCCUUAUCAACAAGUGUACAAUACUUAUCUAAAACUAUACAUUUAGAAUGGAGCAGUUUAAUACUAGAUCUCAGAAGUUUUGAA | 0.491
UGCUCUGGCUCACGAGUAUUGGAGGACCUGAGCACCUCAGGCCGUGGGUCUGUGUGGGGUGUGUGGGUGUGGAUGUCUGCCUCGCCACAGGUGCCACAGAGGGGCAGGCG | 0.836
UAAAAUACUUAAGACGGUUUCUGAUUUUUCCACUAUUUAAAUAAUGCUGUGAUGAAUAUCUUUAAAAUCUUCUGAUUUCUUACUUUUUUCCCCCUUAGAUGCCUGGAAGU | 0.66
UGCAAAGAAGACUAUAGUUUCAGGCAGAAAAUCACGUCCAAAGAAUUUGGCAUGGAUUAAACAACCUCUACCACACUAUAGCUCUCACAUAGGCUGAACAUUUUCCUAAA | 0.276
CCCCCUUUCAAGGAAAGUGAACCUUUAAAGUAAAGGCCUCAUCUCCUUUAUUGCAGUUCAAAUCCUCACCAUCCACAGCAAGAUGAAUUUUAUCAGCCAUGUUUGGUUGU | 0.257
CAUUAUUUAUUACGGAGCUGCCCCGCCUGGGUGGCCGGACCCCUGGGCCUUGGGGCUGUGGAUCCUGGUUCCCUGUUUGGAAAAUUCACCACCUCUAGCUCCUCACUGUU | 0.479

Series 3 — technique: RNA Bind-n-Seq; molecule type: RNA; matrix: in vitro; concentration: not given; baseline: input RNA pool; direction: higher = stronger binding
Target: RING finger protein unkempt homolog, zinc fingers 1-6, GST-SBP tag (UNK, Homo sapiens, UniProt Q9C0B0, residues 30-357)
Sequence of UniProt Q9C0B0 (30-357, looked up): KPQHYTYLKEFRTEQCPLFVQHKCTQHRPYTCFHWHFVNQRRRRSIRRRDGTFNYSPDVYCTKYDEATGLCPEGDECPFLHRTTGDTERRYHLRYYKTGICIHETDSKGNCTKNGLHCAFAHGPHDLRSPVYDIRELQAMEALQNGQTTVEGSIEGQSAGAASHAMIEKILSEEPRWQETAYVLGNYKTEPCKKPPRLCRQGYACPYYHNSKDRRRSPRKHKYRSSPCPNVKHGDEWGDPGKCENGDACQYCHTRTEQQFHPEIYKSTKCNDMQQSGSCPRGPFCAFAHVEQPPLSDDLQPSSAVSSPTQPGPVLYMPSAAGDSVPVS
Setting: RNA with constant flanks, human and mouse sites, ends assumed
Constant ends, left off below: GGGAGUUCUACAGUCCGACGAUC … CAACAGAGGAUUGAGCAUCA
Sequence | bound/input enrichment [ratio]
AUCAAGCAACUGGUUUCCGGAGCUGAGACACUGAAUCUUGUUGCCGAAAUCCUUAAAUCUAUAGACAGAAUUUCUGAAGUUAAAGACGAGGAGGAAGACUCUUGAGGACCCCUGGGUGUU | 0.361
UUAUGGAGGUACAUACGCUCUGAGAGAUCCAUAAUACUAAUUAACUUCUGCCUGUCUAUCAUCUCAUCCAAUAUCCUCAUACUGGUUGGACAGACUCAGACACAUAAUAAGAGUAUCUGC | 0.222
UUGCAGGGAAUGGGCUACAUACCAUCUGCCAGCAUGACUCGGCUCGCCCGAUCACGAACCCACUCAACCUCGAGUAGCCUCGGCUCUGGAGAAAGUCCCUUCAGCCGGUCUGUCACCAGC | 0.0644
ACCACUGCACUUUCCAGACAAGCAGGCCAAGAAACUCUUUCAGUCCUCAAGUUCACCAAGUCUUAGCAUACAGUGUGUGCCCAGAACUACUGGAAACUGAAUGCAUUUAGCAUAUUUUGA | 0.475
UUAAUUAAGCAUUUAUUUUAGUUGUUUUCAUCCAUUCAAGCAAAAUGAAUAAGCAGCAUUUUUCAUUGCACUUAAAAAUGUAAAAUACCUGCAUGCCACUAAUCUGUAACAUUUUACCAG | 1.03
GAGGAAGACAAGCCUAAGCCUGCAGACGUGCAGCCAGAGCCUGGGGUGGCUGUACUCCGAGGACAGGAGGAGGAGGCUGAGCACGCUGGGGAGACACUGGGAGAUGACCCUUCACAGCCU | 0.356
UCUUAACUUAUUCAUUUAACUUAUUUUUAUAGCUAGAUAAAUAUUGUUAGUCUUAGACAAUAGCUCACAUUUUUUGAGAAGCAUGCCCUCCCUGUCCAUUUGUCUUAUAACAUGACCCAG | 13.2
UUUGUUGAAAUACUUGUUCCAGUUGCUGCUGCUGUUAAAAAUGAAGUAAAUGUUCCCUGCCUUAGAAAUUUUGUGGAAAGCCUGUAUGACACCACGCUGGAACUUUCUUCUCGAAAGAAG | 2.34
GGAAGUAAUCCUACAUCAGCCUCUGAUGAUUCCAAUGGGCUGGAGUGGGAAAAUGAUUUUGUUAGUGCCGAAAUGGAUGAUAAUGGAAAUUCCGAGUAUUCUGGAUUUGUAAAUCCUGUA | 0.195
GGAGGGUAUGGAGGCUAUGAUGACUAUGGUGGCUAUAAUGAUGGAUAUGGCUUUGGGUCUGAUAGAUUUGGAAGAGACCUCAAUUACUGUUUUUCAGGAAUGUCUGAUCAUAGAUACGGA | 0.74
AUACUUCAGGGUCCUCUGUGGAGGAUGUCUUGAGCCAGAGUUUAAGCCUGACACACAGGCUUUGGUCCUCACUGAGCUGUCUCCAAGACUGGAACUACUUAGUGACUCGGCAAAUUUUCU | 0.175

Series 4 — technique: protein-binding microarray; molecule type: double-stranded DNA, one strand shown; matrix: in vitro; concentration: 0.8 µM; setting: whole 60-bp probe, no competitor; direction: higher = stronger binding; constant ends, left off below: … GTCTTGATTCGCTTGACGCTGCTG
Target: Centromere-binding protein 1, full length, N-terminal tag (CBF1, Saccharomyces cerevisiae, UniProt P17106, residues 1-351)
Sequence of UniProt P17106 (whole entry, looked up): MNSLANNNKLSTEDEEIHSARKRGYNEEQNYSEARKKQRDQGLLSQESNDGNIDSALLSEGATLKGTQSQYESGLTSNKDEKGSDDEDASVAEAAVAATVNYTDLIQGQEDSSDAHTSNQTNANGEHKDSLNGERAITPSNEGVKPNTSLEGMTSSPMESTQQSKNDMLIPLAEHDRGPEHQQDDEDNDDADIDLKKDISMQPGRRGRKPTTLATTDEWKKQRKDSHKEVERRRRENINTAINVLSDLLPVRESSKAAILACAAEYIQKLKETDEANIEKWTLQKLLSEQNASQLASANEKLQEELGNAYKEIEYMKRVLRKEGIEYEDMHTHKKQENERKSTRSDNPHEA
Sequence | fluorescence intensity
CTAGAAAAGCGTAGCCTCATGACTAGTTGTACCTTC | 575 a.u.
CTAAATCTTGTGGTTGTGGTGGTGCGTGTGAGCTTC | 563 a.u.
CTACATACAGAACGTAACATCAAAAAACAACCGTTC | 494 a.u.
CTAGCGTATCCAGTTTACGTGTGATGGCAATGTTTC | 531 a.u.
GAACCGAGGTGTAACCACACCATTCTTTTCCTTTAG | 494 a.u.
CTAAATTGTTCGTGGCACATGAAAAAAAAAAAATTC | 692 a.u.
CTAAATGATAAATAGCACGATATGTAACAATAGTTC | 579 a.u.
CTAAGTCGCAGTCGTGGTGACTCTGGAGGGCGTTTC | 510 a.u.
CTAGCAACATAACACCACCTTCTTTTAGTCTTTTTC | 504 a.u.
CTATAACTAGTGCATCACCACTTGTCTAAATACTTC | 523 a.u.
CTAATGTGTACATTTTGTATCACGTGCAATATTTTC | 16300 a.u.
GAAATCAAGTGATAACACGTTTAAATGAAACAGTAG | 619 a.u.
CTATGCTAAACTGGTCACGCCGTTATAGACAGCTTC | 1420 a.u.
CTATCGAGCGGTAATCATGAGGGTCCCTGGTAGTTC | 508 a.u.
GAATCATCGGAAAATGACGTGGCTTGGAGCGCATAG | 492 a.u.
CTATATATTACTCATCAGTTGTGTGTGAAAAATTTC | 573 a.u.
GAAATTATACACTTTCACCTGTTGCTGAGTGTGTAG | 549 a.u.
TGTACGAAGCTATCATAGGTGACTATAGTAGTTAGG | 530 a.u.
CTAAGCTTTTCTATTCATGTGATACATCGCCTTTTC | 1070 a.u.

A few entries again (series 2):
Sequence | RBNS enrichment (R)
AUUGGCCUGGCACAUGCUUUAUGUUAGGCCUCCCGUUGGGAUGGCUGAGAAUCAUGAAAGACAGAUCCUCCGCUAGCCUCUGUGGGUCAAGUUUCUGGACACCAAGUCUC | 0.225
UGGAUUUAAACUGCUUAAAAAAGAAAAUGUGACCGGCUCUCCUGCUUGGGUCUCAGGGGAGAUAUGCUUAAGGCCAGAGCUCUUCCUCAGUAUUUGAUUUUUCCAGUGUU | 4.21
UGGUUUCUCCAUGUUUACACUUCAAUCUGCAGGCUUCUUAAAGUGACAGUAUCCCUUAACCUGCCACCGGUUUCCACCUUUCAACCCCCUGGUCUUAUAAGGGGAGGAGA | 0.463
AUAUUUGAUAGACUGCUUUCAGAAAACCCUUAUCAACAAGUGUACAAUACUUAUCUAAAACUAUACAUUUAGAAUGGAGCAGUUUAAUACUAGAUCUCAGAAGUUUUGAA | 0.491
UGCUCUGGCUCACGAGUAUUGGAGGACCUGAGCACCUCAGGCCGUGGGUCUGUGUGGGGUGUGUGGGUGUGGAUGUCUGCCUCGCCACAGGUGCCACAGAGGGGCAGGCG | 0.836
UAAAAUACUUAAGACGGUUUCUGAUUUUUCCACUAUUUAAAUAAUGCUGUGAUGAAUAUCUUUAAAAUCUUCUGAUUUCUUACUUUUUUCCCCCUUAGAUGCCUGGAAGU | 0.66
